Experimental data pooled from the literature.
Protocols differ between the studies behind these lines. ± gives the spread as reported.
UCHL1: Ubiquitin carboxyl-terminal hydrolase isozyme L1 (UCHL1, Homo sapiens, UniProt P09936)
UniProt P09936, sequence (whole entry, looked up): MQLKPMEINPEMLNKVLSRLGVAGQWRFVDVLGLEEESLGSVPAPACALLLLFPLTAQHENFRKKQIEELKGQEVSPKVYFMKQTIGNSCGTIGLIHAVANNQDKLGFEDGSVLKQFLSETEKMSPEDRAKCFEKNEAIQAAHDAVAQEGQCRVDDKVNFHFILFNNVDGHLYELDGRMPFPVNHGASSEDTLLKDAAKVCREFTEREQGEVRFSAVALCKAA

COc1cc2[nH]c(C)c(-c3ccc(O)cc3)c(=O)c2cc1Cl  Papp (PAMPA; pH 7.4): 8 ×10⁻⁶ cm/s
C[C@H]1O[C@@H](O[C@H]2[C@@H](O)C[C@H](O[C@H]3[C@@H](O)C[C@H](O[C@H]4CC[C@@]5(C)[C@H](CC[C@@H]6[C@@H]5C[C@@H](O)[C@]5(C)[C@@H](C7=CC(=O)OC7)CC[C@]65O)C4)O[C@@H]3C)O[C@@H]2C)C[C@H](O)[C@@H]1O  Papp (A to B) (human EpiIntestinal microtissues; 5 µM, 2 h): 1.8 ± 0.3 ×10⁻⁶ cm/s
COc1ccc(NC(=O)C(C#N)=Cc2cccc(O)c2)cc1Cl  labelling (UCHL1; covalent, intact protein LC-MS; 12.5 µM): 36.6%
CC(C)NCC(O)COc1cccc2ccccc12 (centres unmarked)  Papp apical to basolateral (EpiIntestinal microtissues; 5 µM, 2 h, pH 6.5, basolateral pH 7.4): 12.1 ×10⁻⁶ cm/s
COc1cccc(-c2cccc(Nc3nccc(NC(C)C)n3)c2)c1  Papp (A to B) (MDCKII-WT cells; 10 µM, pH 7.4): 0.327 ± 0.119 ×10⁻⁶ cm/s
COc1cc(C=C(C#N)C(N)=O)cc(OC)c1OC  labelling (UCHL1; covalent, intact protein LC-MS; 12.5 µM): 8.28%
c1cncc(-c2cccc(Nc3nccc(NC4CCCCC4)n3)c2)c1  Papp (A to B) (MDCKII-WT cells; 10 µM, pH 7.4): 7 ± 3.12 ×10⁻⁶ cm/s
COc1cc2[nH]c(C)c(-c3ccc(Oc4ccccc4)cc3)c(=O)c2cc1Cl  Papp (PAMPA; pH 7.4): 41 ×10⁻⁶ cm/s
C[C@@H]1O[C@@H](O[C@H]2[C@H](Oc3cc(O)c4c(c3)O[C@H](c3ccc(O)cc3)CC4=O)O[C@H](CO)[C@@H](O)[C@@H]2O)[C@H](O)[C@H](O)[C@H]1O  Papp (PBS receiver; 50 mg/mL, 60 min, pH 6.8): 0.359 ± 1.1 ×10⁻⁶ cm/s
c1ccc(-c2cccc(Nc3nccc(NC4CCCCC4)n3)c2)cc1  Papp (B to A) (MDCKII-WT cells; 10 µM, pH 7.4): 0.069 ± 0.008 ×10⁻⁶ cm/s
COc1cc2[nH]c(C)c(-c3ccccc3C)c(=O)c2cc1Cl  Papp (PAMPA; pH 7.4): 191 ×10⁻⁶ cm/s

Repeated from above:
C[C@@H]1O[C@@H](O[C@H]2[C@H](Oc3cc(O)c4c(c3)O[C@H](c3ccc(O)cc3)CC4=O)O[C@H](CO)[C@@H](O)[C@@H]2O)[C@H](O)[C@H](O)[C@H]1O  Papp (PBS receiver; 50 mg/mL, 60 min, pH 6.8): 0.359 ± 1.1 ×10⁻⁶ cm/s
c1ccc(-c2cccc(Nc3nccc(NC4CCCCC4)n3)c2)cc1  Papp (B to A) (MDCKII-WT cells; 10 µM, pH 7.4): 0.069 ± 0.008 ×10⁻⁶ cm/s
